Measurements gathered from unrelated publications.
Parts stem from different laboratories: compare values within a part only. Substitutions count along the parent as printed.

Study 1
Target: ABI1, truncated, D143A, DHFR fusion (Arabidopsis thaliana)
Method: DHFR PCA, deep sequencing
Medium: yeast
Notes: methotrexate growth selection, single substitutions
Together with: (+)-ABA 58 µM
Relative to: wild-type fitted maximum
Direction: higher = stronger binding
Endpoint: relative binding score
Starting sequence: PYL1, truncated, DHFR fusion (Arabidopsis thaliana); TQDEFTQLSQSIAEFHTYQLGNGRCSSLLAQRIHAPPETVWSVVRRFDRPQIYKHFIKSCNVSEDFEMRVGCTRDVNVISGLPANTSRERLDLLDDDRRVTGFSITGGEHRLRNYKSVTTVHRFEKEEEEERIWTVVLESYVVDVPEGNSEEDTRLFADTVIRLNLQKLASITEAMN
S42N: 91.5%
I79V: 89.1%
T101Y: 67.4%
E109L: 66.2%
L156C: 85.2%
D97W: 57.3%

Study 2
Target: Fragile X messenger ribonucleoprotein 1, C-terminal low-complexity region (Fmr1, Mus musculus, UniProt P35922)
Method: RNA Bind-n-Seq
Molecule type: RNA
Medium: in vitro
Tested at: 200 nM
Notes: whole 134-nt RNA, ends assumed
Together with: 150 mM KCl
Relative to: input library
Direction: higher = stronger binding
Endpoint: log2 enrichment
Shared flanks, not repeated: GGGAGUUCUACAGUCCGACGAUC … UGGAAUUCUCGGGUGUCAAGG
ACCAUGCAGGUGGGCAUCUUUGGGAAAAGGGGCAAGGGGGGGAUAGGGAGGGGGGUAACACUUUGGGAACAGGUGGUCCCAGGUCGUUUC: 0.889
GUCCUGUGCUACACAUCGUAUGUACCGAAUCAAACCCCCAAACCCCCCCAAAUUUAAAAAAGUAUUAUGUUACGCCGUUCGGAUCUGCAC: -0.157
CCUCAAGUCCUGUGCUACACAUCGUAUGUACCGAAUCGGCCGGCCGGCCGGGGAAAGUAUUAUGUUACGCCGUUCGGAUCUGCACUUCCA: -0.161
CUCAAGUCCUGUGCUACACAUCGUAUGUACCGAAUCGGGGCCGGCCGGGGCCGGAAAGUAUUAUGUUACGCCGUUCGGAUCUGCACUUCC: 0.00579
AGUCCUGUGCUACACAUCGUAUGUACCGAAUCGGGUUUUGGGGUUUUGGGUUUUGGGAAAGUAUUAUGUUACGCCGUUCGGAUCUGCACU: 0.666
ACCAUGCAGGUGGGCAUCUUUGGGAAGUGGGGCAAGGGGGGGAUAGGGAGGGGGGUAACACUUUGGGAACAGGUGGUCCCAAAUCGUUUC: 0.729

Study 3
Target: Interferon regulatory factor 7, full length, phosphomimetic (IRF7, Homo sapiens, UniProt Q92985, residues 1-503, S471D/S472D/S475D/S476D/S477D/S483D/S484D/S487D)
Method: protein-binding microarray
Molecule type: double-stranded DNA, one strand shown
Medium: in vitro
Tested at: 2200 nM top
Notes: 60-bp whole probe
Together with: salmon DNA 0.4 mg/ml
Relative to: random background probes
Direction: higher = stronger binding
Endpoint: fitted relative affinity
Shared flanks, not repeated: GCCTAGCAC … GTCTTGATTCGCTTGACGCTGCTG
Target sequence (chain): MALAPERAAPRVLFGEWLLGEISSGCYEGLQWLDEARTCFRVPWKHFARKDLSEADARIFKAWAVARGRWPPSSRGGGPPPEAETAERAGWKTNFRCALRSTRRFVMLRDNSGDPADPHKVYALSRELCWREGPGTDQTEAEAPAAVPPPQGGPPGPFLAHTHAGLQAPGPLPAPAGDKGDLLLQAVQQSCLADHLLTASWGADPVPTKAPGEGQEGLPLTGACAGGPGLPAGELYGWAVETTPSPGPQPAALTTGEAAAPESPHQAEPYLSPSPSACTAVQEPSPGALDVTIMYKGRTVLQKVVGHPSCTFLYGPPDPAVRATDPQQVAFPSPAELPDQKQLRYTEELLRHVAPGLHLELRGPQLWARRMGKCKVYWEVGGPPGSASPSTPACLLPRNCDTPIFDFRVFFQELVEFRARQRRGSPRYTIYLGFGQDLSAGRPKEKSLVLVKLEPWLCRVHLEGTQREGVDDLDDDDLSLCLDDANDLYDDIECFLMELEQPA
TTTTCTCTGGTTCTTGCTTGGTGCTAG: 2.33 z-score
TTAGGGTTCCTTATCCTTTAGTGCTAG: 0.617 z-score
TTAGATTCCAGTTTCGAGTAGTGCTAG: 4.51 z-score
TTATGACTGCTTATCCTTTAGTGCTAG: 1.02 z-score
GACGGTTTCGGGCATCGGGACGTGCTA: 2.34 z-score
GACGATTTCAGTTCAGAGACGTGCTAG: 1.72 z-score
TTCGGTTTCGGTCTCGGTTAGTGCTAG: 8.6 z-score

Single results of other studies
PhoQ, residues 284 288 289 292 302 303 SSTLSG — fold induction (PhoP, residues 12 14 15 18 19 IQSYL (Escherichia coli, UniProt P23836); Sort-seq, item: YFP reporter; E. coli; PhoQ-PhoP variant library, together with: 10 µM Mg2+; relative to: high Mg2+ state, higher = stronger signaling): 12.3

For quick reference, copied from above (study 3):
TTATGACTGCTTATCCTTTAGTGCTAG: 1.02 z-score
